# Published values from different studies.
# Lines come from different studies, so protocols differ.
SMILES,matrix,pH,temperature,setting,together with,fluorescence lifetime [ns]
CCN(CC)c1ccc2c(c1)O[B-]1(c3ccccc3C)OC(=O)C(c3ccccc3)=N[N+]1=C2 (stereo not drawn),toluene,,,,,2.32
CCN(CC)c1ccc(-c2oc3cc4ccccc4cc3c(=O)c2O)cc1,"CH3CN, N2-purged",,,,,6.1
CCCCN1C(=O)c2cccc3c(NCCCCN4CCOCC4)ccc(c23)C1=O,water,pH 6.0,,,,4.6
C=Cc1ccccc1[B-]12OC(=O)C(c3ccccc3)=N[N+]1=Cc1ccc(N(CC)CC)cc1O2 (stereo not drawn),toluene,,,,,2.42
CN(C)c1ccc(/C=C/c2cc(=O)cc(/C=C/c3ccc(N(C)C)cc3)o2)cc1,acetonitrile/water 1:19 v/v,,298 K,aggregate nanoparticle suspension,excitation 377 nm,1.4
COc1ccc2c(c1)O[B-]1(c3ccccc3)OC(=O)C(c3ccccc3)=N[N+]1=C2C (stereo not drawn),toluene,,,,,1.05
O=c1cc(/C=C/c2ccc(N3CCOCC3)cc2)oc(/C=C/c2ccc(N3CCOCC3)cc2)c1,acetonitrile,,298 K,,excitation 377 nm,0.4
CCCCN1C(=O)c2cccc3c(NCCCCCCN4CCOCC4)ccc(c23)C1=O,toluene,,,,,8.6
O=c1cc(/C=C/c2ccc(N(c3ccccc3)c3ccccc3)cc2)oc(/C=C/c2ccc(N(c3ccccc3)c3ccccc3)cc2)c1,acetonitrile/water 1:19 v/v,,298 K,aggregate nanoparticle suspension,excitation 377 nm,2.2
CCCCN1C(=O)c2cccc3c(NCCCN4CCOCC4)ccc(c23)C1=O,ethylene glycol,,,,,6.4
O=c1cc(/C=C/c2ccc(N3CCCC3)cc2)oc(/C=C/c2ccc(N3CCCC3)cc2)c1,acetonitrile,,298 K,,excitation 377 nm,0.31
CCC1=[N+]2N=C(/C=C/C=C/c3ccccc3)C(=O)O[B-]2(c2ccccc2)Oc2cc(N(CC)CC)ccc21 (stereo not drawn),toluene,,,,,1.18
